Measured values pooled from the literature.
Each line is one published result; not all experiments were run side by side. pIC50: −log10 of the molar value.
TMPRSS2: Transmembrane protease serine 2 (TMPRSS2, Homo sapiens, UniProt O15393)
Sequence of UniProt O15393 (whole entry, looked up): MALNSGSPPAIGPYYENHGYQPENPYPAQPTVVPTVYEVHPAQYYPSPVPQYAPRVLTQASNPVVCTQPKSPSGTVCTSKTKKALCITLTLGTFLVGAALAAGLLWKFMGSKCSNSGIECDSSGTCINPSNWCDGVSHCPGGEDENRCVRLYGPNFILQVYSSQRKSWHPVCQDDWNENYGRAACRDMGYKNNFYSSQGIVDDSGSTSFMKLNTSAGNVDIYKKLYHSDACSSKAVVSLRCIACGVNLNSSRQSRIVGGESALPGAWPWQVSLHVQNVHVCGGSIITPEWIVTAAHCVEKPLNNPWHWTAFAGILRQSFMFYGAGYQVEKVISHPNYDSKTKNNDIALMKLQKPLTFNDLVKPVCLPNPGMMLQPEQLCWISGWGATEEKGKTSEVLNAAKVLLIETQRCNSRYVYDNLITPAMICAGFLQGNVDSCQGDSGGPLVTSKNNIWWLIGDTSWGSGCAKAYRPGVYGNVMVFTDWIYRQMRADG
PFF0160c E182D: Dihydroorotate dehydrogenase (quinone), mitochondrial (PFF0160c, Plasmodium falciparum, UniProt Q08210, E182D)
Sequence of UniProt P00519 (whole entry, unmodified, looked up): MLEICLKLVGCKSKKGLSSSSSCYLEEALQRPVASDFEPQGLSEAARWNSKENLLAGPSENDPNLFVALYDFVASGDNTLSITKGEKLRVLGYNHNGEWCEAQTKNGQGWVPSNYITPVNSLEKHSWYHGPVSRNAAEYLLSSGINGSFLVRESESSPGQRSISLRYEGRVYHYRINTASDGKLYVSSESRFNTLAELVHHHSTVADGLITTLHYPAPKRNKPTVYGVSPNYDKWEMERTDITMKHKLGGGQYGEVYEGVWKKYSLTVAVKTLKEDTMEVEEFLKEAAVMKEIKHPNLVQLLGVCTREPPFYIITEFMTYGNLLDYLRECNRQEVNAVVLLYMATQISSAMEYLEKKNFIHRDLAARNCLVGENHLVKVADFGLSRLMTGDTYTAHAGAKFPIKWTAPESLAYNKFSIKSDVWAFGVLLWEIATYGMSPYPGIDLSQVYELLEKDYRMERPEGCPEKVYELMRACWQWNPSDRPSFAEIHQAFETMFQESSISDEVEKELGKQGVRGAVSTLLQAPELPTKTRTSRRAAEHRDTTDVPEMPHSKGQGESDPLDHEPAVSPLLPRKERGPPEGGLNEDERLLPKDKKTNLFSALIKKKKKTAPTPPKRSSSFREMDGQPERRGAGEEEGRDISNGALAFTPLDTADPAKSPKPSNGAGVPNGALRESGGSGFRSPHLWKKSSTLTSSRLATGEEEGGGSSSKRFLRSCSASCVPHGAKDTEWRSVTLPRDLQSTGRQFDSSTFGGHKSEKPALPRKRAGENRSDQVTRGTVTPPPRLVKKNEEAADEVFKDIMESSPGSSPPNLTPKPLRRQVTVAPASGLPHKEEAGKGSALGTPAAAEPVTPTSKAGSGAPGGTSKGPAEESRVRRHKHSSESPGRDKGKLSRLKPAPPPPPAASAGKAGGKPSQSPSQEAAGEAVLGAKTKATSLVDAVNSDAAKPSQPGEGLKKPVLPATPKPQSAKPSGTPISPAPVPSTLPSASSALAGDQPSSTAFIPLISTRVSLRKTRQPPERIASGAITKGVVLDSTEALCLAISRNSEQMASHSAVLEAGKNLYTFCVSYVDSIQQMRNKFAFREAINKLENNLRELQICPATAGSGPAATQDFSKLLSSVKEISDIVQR
Sequence of UniProt Q8N752 (whole entry, looked up): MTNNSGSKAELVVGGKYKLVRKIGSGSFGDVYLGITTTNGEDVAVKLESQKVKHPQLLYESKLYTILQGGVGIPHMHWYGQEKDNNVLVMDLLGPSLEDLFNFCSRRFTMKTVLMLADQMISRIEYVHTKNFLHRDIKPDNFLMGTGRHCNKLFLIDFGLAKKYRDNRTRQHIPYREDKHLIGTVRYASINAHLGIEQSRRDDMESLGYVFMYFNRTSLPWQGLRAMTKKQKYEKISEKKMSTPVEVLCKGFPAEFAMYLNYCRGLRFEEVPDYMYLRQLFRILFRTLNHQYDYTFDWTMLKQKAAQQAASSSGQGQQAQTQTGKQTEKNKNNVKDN
Sequence of UniProt P37231 (whole entry, looked up): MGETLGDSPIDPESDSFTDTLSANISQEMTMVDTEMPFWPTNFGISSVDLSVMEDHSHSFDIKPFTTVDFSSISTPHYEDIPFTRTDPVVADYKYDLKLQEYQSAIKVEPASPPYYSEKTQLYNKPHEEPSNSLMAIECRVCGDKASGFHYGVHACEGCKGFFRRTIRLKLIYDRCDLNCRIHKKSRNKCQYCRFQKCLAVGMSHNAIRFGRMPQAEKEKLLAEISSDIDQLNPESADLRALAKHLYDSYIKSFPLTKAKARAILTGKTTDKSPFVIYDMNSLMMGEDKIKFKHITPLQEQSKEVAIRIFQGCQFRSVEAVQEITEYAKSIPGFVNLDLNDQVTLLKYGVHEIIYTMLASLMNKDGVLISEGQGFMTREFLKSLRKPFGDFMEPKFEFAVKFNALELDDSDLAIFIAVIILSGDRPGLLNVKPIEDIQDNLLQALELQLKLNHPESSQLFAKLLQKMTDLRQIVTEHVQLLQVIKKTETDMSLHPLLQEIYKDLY
Sequence of UniProt P07711 (whole entry, looked up): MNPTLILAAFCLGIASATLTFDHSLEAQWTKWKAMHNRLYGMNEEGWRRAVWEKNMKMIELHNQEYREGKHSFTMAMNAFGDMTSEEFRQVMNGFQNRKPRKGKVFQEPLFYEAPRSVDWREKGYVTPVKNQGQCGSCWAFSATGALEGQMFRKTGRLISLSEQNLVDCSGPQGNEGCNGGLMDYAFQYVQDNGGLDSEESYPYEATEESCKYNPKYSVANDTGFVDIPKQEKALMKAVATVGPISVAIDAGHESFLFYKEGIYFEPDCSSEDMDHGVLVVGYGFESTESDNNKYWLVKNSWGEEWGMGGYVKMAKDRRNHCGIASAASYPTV
Sequence of UniProt P14416 (whole entry, looked up): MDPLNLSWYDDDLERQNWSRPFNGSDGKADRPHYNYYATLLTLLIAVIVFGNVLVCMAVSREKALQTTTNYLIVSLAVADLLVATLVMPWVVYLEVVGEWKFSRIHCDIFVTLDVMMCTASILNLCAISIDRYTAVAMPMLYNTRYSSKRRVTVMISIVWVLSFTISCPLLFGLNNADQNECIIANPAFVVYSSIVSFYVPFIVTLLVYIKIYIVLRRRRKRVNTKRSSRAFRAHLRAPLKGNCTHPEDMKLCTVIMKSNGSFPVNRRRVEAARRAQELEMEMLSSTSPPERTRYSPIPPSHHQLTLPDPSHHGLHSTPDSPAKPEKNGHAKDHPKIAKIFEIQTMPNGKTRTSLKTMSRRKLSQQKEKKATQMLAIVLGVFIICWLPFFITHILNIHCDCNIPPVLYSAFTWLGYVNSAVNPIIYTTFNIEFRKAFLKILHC
Sequence of UniProt P52564 (whole entry, looked up): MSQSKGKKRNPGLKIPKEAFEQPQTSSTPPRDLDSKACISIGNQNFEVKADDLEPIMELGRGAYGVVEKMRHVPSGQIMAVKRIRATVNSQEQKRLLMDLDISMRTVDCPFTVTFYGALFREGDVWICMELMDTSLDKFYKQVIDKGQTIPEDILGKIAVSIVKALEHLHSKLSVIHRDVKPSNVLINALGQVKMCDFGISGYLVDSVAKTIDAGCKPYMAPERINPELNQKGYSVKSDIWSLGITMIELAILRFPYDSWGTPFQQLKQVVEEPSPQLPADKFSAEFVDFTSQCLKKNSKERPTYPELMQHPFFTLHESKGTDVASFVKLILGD
Sequence of UniProt Q9P1W9 (whole entry, looked up): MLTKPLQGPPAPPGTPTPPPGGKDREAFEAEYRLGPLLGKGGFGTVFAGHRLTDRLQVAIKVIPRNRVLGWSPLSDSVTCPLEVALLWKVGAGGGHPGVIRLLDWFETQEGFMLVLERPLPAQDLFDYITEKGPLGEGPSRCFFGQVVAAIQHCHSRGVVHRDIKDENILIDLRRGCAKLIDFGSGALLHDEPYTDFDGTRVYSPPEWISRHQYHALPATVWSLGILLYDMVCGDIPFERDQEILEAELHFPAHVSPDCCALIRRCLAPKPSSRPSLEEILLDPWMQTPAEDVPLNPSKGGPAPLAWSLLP
Sequence of UniProt O75460 (whole entry, looked up): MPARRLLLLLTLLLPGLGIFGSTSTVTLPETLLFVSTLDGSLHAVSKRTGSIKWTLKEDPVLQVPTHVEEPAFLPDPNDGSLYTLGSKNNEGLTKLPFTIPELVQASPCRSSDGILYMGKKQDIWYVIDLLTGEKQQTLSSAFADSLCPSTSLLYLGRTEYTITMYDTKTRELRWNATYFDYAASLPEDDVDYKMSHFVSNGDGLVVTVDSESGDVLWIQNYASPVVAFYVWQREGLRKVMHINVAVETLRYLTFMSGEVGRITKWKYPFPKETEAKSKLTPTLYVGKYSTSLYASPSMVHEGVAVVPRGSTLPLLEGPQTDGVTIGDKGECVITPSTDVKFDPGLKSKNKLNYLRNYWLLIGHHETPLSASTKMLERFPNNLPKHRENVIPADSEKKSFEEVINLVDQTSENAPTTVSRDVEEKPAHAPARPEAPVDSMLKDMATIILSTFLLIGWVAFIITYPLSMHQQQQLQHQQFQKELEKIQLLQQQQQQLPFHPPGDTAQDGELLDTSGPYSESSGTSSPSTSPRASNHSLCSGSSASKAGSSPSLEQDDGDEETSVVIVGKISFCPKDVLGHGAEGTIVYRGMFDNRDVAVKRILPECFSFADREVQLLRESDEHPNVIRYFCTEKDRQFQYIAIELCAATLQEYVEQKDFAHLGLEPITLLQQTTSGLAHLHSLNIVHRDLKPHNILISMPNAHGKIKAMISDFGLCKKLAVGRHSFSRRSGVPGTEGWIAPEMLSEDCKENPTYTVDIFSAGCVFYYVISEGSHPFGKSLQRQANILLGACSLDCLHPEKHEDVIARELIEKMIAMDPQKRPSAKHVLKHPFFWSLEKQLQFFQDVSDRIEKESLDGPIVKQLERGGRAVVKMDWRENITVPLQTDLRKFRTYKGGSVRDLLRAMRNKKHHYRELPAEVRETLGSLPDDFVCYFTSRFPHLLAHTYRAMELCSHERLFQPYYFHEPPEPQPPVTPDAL

Under “activity vs control”, `CC(C)[C@H](NC(=O)[C@H](Cc1ccc(O)cc1)NC(=O)[C@@H](N)Cc1ccc(O)cc1)C(=O)N[C@H](CCCNC(=N)N)C(=O)c1nc2ccccc2s1` is recorded as 71% (TMPRSS2; enzyme activity, inhibitor; 1 nM).
`[2H]c1c([2H])c([C@]2([2H])CCCN2C(=O)C(C)(C)Oc2ccc3cn[nH]c3c2)c([2H])c([2H])c1C([2H])([2H])[2H]` has a remaining binding of 94% (MAP2K6 (Homo sapiens, UniProt P52564); binding, competition with immobilised ligand; 1 µM).
With `COc1ncccc1-c1cnn2ccc(N3CCN(C(=O)OC(C)C)CC3)nc12` the remaining binding was 100% (CSNK1A1L (Homo sapiens, UniProt Q8N752); binding, competition with immobilised ligand; 1 µM).
The pIC50 of `CCNC(=O)c1ccc(-n2nc(C)cc2-c2ccccc2)cc1` is reported as 5.74 (PFF0160c E182D; enzyme activity, inhibitor, absorbance).
With `CCCCCc1cc(=O)c2ccccc2[nH]1` the remaining activity was 123% (Procathepsin L (CTSL, Homo sapiens, UniProt P07711); enzyme activity, inhibitor; 100 µM).
`C#Cc1n[nH]c2c(-c3cn([C@@H](C)c4ccccn4)c(=O)[nH]c3=O)cc(F)cc12` has an inhibition of 4.5% (PIM2 (Homo sapiens, UniProt Q9P1W9); enzyme activity, inhibitor; 0.1 µM).
`CC(=O)N[C@@H](CCCNC(=N)N)C(=O)N[C@@H](CCC(N)=O)C(=O)N[C@@H](C)C(=O)N[C@@H](CCCNC(=N)N)C(=O)c1nc2ccccc2s1`: “activity vs control” 82% (TMPRSS2; enzyme activity, inhibitor; 1 nM).
`CC(CNCc1cn(Cc2cc(Br)cc(Br)c2)c2ccccc12)CNc1cc(=O)c2ccccc2[nH]1` (stereo not shown) gave a pIC50 of < 5.00 (PFF0160c E182D; enzyme activity, inhibitor, absorbance).
Under “activity vs control”, `N=C(N)NCCC[C@H](N)C(=O)N[C@@H](CCC(N)=O)C(=O)N[C@@H](CCc1ccccc1)C(=O)N[C@H](CCCNC(=N)N)C(=O)c1nc2ccccc2s1` is recorded as 27% (TMPRSS2; enzyme activity, inhibitor; 1 nM).
With `CC(C)CC(=O)OC[C@H]1O[C@@](C#N)(c2ccc3c(N)ncnn23)[C@H](O)[C@@H]1O` the inhibition was 9% (PPARG (Homo sapiens, UniProt P37231); cell-free assay; 20 µM).
With `Nc1ncc(-c2nc(N3CCOCC3)nc(N3CCOCC3)n2)c(C(F)F)n1` the remaining binding was 80% (ERN1 (Homo sapiens, UniProt O75460); cell-free assay, competition with immobilised ligand; 10 µM).
The inhibition of `c1cncc([C@@H]2CCCN2)c1` is reported as -1.48% (DRD2 (Homo sapiens, UniProt P14416); ligand displacement; 50 µM).
With `Cc1nn(C)cc1-c1nc2c(N3CCN(Cc4ccc(Cl)cc4)CC3)c(Cl)cnc2[nH]1` the remaining binding was 100% (Tyrosine-protein kinase ABL1, non-phosphorylated (ABL1, Homo sapiens, UniProt P00519, F317I); binding, competition with immobilised ligand; 1 µM).
